Measurements of several laboratories.
Target: Coagulation factor X (F10, Homo sapiens, UniProt P00742)
Sequence of UniProt P00742 (whole entry, looked up): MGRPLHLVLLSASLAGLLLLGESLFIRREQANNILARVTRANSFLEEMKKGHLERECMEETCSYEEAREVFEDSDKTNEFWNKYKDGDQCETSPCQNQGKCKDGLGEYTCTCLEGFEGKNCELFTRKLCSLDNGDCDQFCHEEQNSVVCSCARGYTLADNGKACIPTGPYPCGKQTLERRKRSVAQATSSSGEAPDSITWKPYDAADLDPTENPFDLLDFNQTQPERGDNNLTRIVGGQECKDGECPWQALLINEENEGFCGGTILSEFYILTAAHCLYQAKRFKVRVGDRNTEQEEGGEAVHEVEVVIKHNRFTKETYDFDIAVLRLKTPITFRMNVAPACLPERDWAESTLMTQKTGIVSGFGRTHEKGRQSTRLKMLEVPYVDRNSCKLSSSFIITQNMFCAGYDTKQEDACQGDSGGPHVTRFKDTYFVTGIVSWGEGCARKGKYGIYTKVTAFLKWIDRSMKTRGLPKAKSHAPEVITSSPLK
Effect on: enzyme activity
Mode: inhibitor

| Compound | method | pH | quantity | result |
| --- | --- | --- | --- | --- |
| CNC(=O)C1CCC(NC(=O)C(=O)Nc2ccc(Cl)cn2)C(NC(=O)c2nc3c(s2)CN(C)CC3)C1 (stereo not shown) | – | – | IC50 | 2.7 nM |
| Cc1cc(-c2ccc(/N=N/c3ccc4c(S(=O)(=O)O)cc(S(=O)(=O)O)c(N)c4c3O)c(C)c2)ccc1/N=N/c1ccc2c(S(=O)(=O)O)cc(S(=O)(=O)O)c(N)c2c1O | absorbance | pH 7.4 | IC50 | ~13000 nM |
| CC(C)CCC[C@@H](C)[C@H]1CC[C@H]2[C@@H]3CC=C4C[C@@H](OS(=O)(=O)O)CC[C@]4(C)[C@H]3CC[C@]12C | absorbance | pH 7.4 | IC50 | 249000 nM |
| CNC(=O)N(C)c1ccc(C(=O)Nc2ccc(C)cc2C(=O)Nc2ccc(Cl)cn2)c(F)c1 | absorbance | – | IC50 | 0.25 nM |
| Cc1ccc(O)c2c3c(nn12)CCC(C)(NC(=O)c1ccc(-n2cnc4cc(C(=O)O)ccc42)cc1Cl)C3 (stereo not shown) | – | – | Ki | 489 nM |
| COc1ccc(NC(=O)c2ccc(N(C)C(C)=N)cc2)c(C(=O)Nc2ccc(Cl)cn2)c1 | absorbance | – | IC50 | 1 nM |
| O=C1CC(c2ccc(O)cc2)Oc2cc(O)cc(OC3OC(CO)C(O)C(O)C3O)c21 (stereo not shown) | absorbance | – | IC50 | 12500 nM |
| CN(C)C(=O)[C@H]1CC[C@H](NC(=O)C(=O)Nc2ccc(Cl)cn2)[C@H](NC(=O)c2nc3c(s2)CNCC3)C1 | – | – | IC50 | 6.9 nM |
| Cc1ccc(C(=O)Nc2ccc(CP(=O)(O)O)cc2CP(=O)(O)O)cc1NC(=O)c1cccc(NC(=O)Nc2cccc(C(=O)Nc3cc(C(=O)Nc4ccc(CP(=O)(O)O)cc4CP(=O)(O)O)ccc3C)c2)c1 | absorbance | – | IC50 | > 100000 nM |
| CNC(=O)N(C)c1ccc(C(=O)Nc2ccc(OC)cc2C(=O)Nc2ccc(Cl)cn2)cc1 | absorbance | – | IC50 | 0.25 nM |

A few entries again:
| Compound | method | pH | quantity | result |
| --- | --- | --- | --- | --- |
| CNC(=O)C1CCC(NC(=O)C(=O)Nc2ccc(Cl)cn2)C(NC(=O)c2nc3c(s2)CN(C)CC3)C1 (stereo not shown) | – | – | IC50 | 2.7 nM |
